Measured values collected from several papers.
Numbers after ± are the reported error.

With CCCCC1=NC2(CCCC2)C(=O)N1Cc1ccc(-c2ccccc2S(=O)(=O)Nc2noc(C)c2C)c(COCC)c1 the intrinsic solubility was 1.9 µg/mL (SIVA model; aqueous buffer).
The intrinsic clearance of O=C(NCCN1CCCC1)c1cc(-c2ccc(CN3CCOCC3)cc2)nc2ccc(F)cc12 is reported as ≤ 1.1 mL/min/g (human liver microsomes).
For COc1ccc2c(c1)CCN(C(=O)C1CCN(c3c(C#N)cnc4ccc(F)cc34)CC1)C2, “intrinsic clearance (scaled)” read 480 mL/min/kg (human liver microsomes).
O=C(c1ccc(F)cc1)C1CCN(CCn2c(=O)[nH]c3ccccc3c2=O)CC1 gave an intrinsic clearance of 239 mL/min/kg (mouse liver microsomes).
Under “intrinsic clearance (scaled)”, Cc1ccc(OC2CCN(c3c(C#N)cnc4ccc(F)cc34)CC2)cn1 is recorded as 198 mL/min/kg (rat liver microsomes).
Under “intrinsic clearance, unbound”, C=CC(=O)N(C)CCOc1c(N)ncnc1-c1cc(F)cc(NC(=O)c2ccc(C3CC3)cc2F)c1C is recorded as 470 µL/min/mg (human liver microsomes; pH 7.4, sum of recombinant CYP contributions).
For CO[C@]1(C(=O)N[C@@H](C)c2ccc(-n3cc(F)cn3)nc2)CC[C@H](c2nc(C)cc(Nc3cc(C)[nH]n3)n2)CC1, the intrinsic solubility was 0.2 µg/mL.
N#Cc1cnc2ccc(F)cc2c1N1CCC(C(=O)Nc2ccc(S(N)(=O)=O)cc2)CC1: “intrinsic clearance (scaled)” 31 mL/min/kg (human liver microsomes).
For O=c1ccc2ccc(O)cc2o1, the intrinsic clearance was 692 µL/min/mg protein (mouse liver microsomes).
C[C@@H]1CN(CC(=O)N2CC(C)(C)c3ncc(Cc4ccc(F)cc4)cc32)[C@@H](CN2CCOC[C@H]2C)CN1 gave an intrinsic clearance of 89 ± 20 µL/min/mg (microsomes, male mouse liver, CD-1; 1 µM).

Repeated from above:
For COc1ccc2c(c1)CCN(C(=O)C1CCN(c3c(C#N)cnc4ccc(F)cc34)CC1)C2, “intrinsic clearance (scaled)” read 480 mL/min/kg (human liver microsomes).
